# Published values pooled from the literature.
# ± marks the error that the study gave.
SMILES,assay,system,conditions,AUC(0-inf)
Cc1nc(-c2cnc(NC(C)C)n(C)c2=O)ccc1Oc1ccnc(-c2cnn(C)c2)c1,,"Beagle dog, male, plasma","oral, 3 mg/kg, crossover study, mean",8360 ng·h/mL
CCCCCCCCCCCCCCCC(=O)N[C@@H](CCC(=O)NCCCC[C@@H]1NC(=O)[C@H]([C@@H](C)CC)NC(=O)[C@@H](NC(=O)[C@@H]2CCCN2C(=O)[C@H](Cc2ccccc2)NC(=O)[C@H](Cc2c[nH]cn2)NC(=O)[C@@H](NC(=O)[C@H](CC(=O)O)NC(=O)CC(C)C)[C@@H](C)O)CSSC[C@@H](C(=O)N[C@@H](CCCCN)C(N)=O)NC(=O)CNC(=O)[C@H](CCCCN)NC(=O)[C@H](CO)NC(=O)[C@H](CCCNC(=N)N)NC(=O)[C@@H]2CCCN2C(=O)[C@H](CCC(=O)O)NC(=O)[C@H](Cc2ccccc2)NC1=O)C(=O)O,,"healthy volunteers, plasma","subcutaneous, 45 mg single, lyophilised formulation",40600 ± 8900 ng·h/mL
COc1cc2c3c(n(CCCN4CCOCC4)c(=O)c2cc1OC)-c1cc2c(cc1C3=O)OCO2,,"beagle dog, male, plasma","intravenous infusion, 50 mg/m^2, 1 h infusion, vehicle 2",1440 ± 651 ng·h/mL
COc1nc(-c2cc(C)c(N[C@@H](C)c3cc(F)cc(F)c3)nn2)ccc1-n1cnc(C)c1,,"cynomolgus monkey, male, plasma","oral, 2 mg/kg",1680 ng·h/mL
C=CC(=O)NC1CCN(c2ncc3ncnc(Nc4ccc(Oc5ccc6c(c5)ncn6C)c(C)c4)c3n2)CC1,,"male beagle dogs, plasma","oral, 3 mg/kg, Natrosol suspension, together with: famotidine pretreatment",0.827 µM·h
COc1cc(C(=O)NC2CCN(C)CC2)c(F)cc1Nc1ncc(C(F)(F)F)c(Oc2cccc3c2C(=O)N(C)C3)n1,,"cancer patients, plasma","oral, 25 mg single dose, cycle 1 day 1, geometric mean",3.92 µM·h
CCc1nc2c(C)cc(N3CCN(CC(=O)N4CC(O)C4)CC3)cn2c1N(C)c1nc(-c2ccc(F)cc2)c(C#N)s1,,"healthy volunteers, plasma","oral, 1000 mg once daily multiple doses",132000 ng·h/mL
C[C@@H]1CN(CC(=O)N2CC(C)(C)c3nc(CO)c(Cc4ccc(F)cc4)cc32)[C@@H](CN2CCOC[C@H]2C)CN1,,"cynomolgus monkey, male","oral, 5 mg/kg",592 ± 174 ng·h/mL
COc1ccc(C[C@@H](C)[C@@H](C)Cc2ccc(OC)c(OC)c2)cc1OC,,"beagle dog, male, plasma","oral, 100 mg/kg/day, day 1",17000 ng·h/mL
CC(C(=O)NCC(=O)NCC(CNC(=O)CNC(=O)C(C)N1CCN(CC(=O)[O-])CCN(CC(=O)[O-])CCN(CC(=O)[O-])CC1)(CNC(=O)CNC(=O)C(C)N1CCN(CC(=O)[O-])CCN(CC(=O)[O-])CCN(CC(=O)[O-])CC1)CNC(=O)CNC(=O)C(C)N1CCN(CC(=O)[O-])CCN(CC(=O)[O-])CCN(CC(=O)[O-])CC1)N1CCN(CC(=O)[O-])CCN(CC(=O)[O-])CCN(CC(=O)[O-])CC1.[Gd+3].[Gd+3].[Gd+3].[Gd+3] (stereo not shown),ICP-MS,"female cynomolgus monkey, plasma","intravenous bolus, 0.1 mmol/kg, lanthanide mixture, geometric mean",874 µM·h
